# Measured values pooled from the literature.
# Numbered parts are unrelated; each lists some results of a single study. Changes are numbered by the printed parent chain.

# Block 1
# Target: Ras GTPase-activating protein-binding protein 1, C-terminal RGG region (G3BP1, Homo sapiens, UniProt Q13283)
# Sequence of UniProt Q13283 (whole entry, looked up): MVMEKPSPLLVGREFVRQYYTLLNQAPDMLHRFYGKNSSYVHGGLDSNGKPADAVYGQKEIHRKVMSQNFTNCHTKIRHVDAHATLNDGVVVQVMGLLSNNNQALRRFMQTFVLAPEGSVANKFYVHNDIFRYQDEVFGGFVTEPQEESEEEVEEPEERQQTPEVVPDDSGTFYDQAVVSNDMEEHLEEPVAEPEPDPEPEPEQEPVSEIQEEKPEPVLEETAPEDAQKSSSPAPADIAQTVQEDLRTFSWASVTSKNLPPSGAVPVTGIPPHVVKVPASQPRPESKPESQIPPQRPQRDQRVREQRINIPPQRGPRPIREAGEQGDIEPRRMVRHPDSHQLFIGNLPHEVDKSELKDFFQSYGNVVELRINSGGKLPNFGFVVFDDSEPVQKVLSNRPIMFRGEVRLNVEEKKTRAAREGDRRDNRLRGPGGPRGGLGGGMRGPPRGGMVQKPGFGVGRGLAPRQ
# Technique: RNA Bind-n-Seq
# Molecule type: RNA
# Matrix: in vitro
# Tested at: 1 µM
# Notes: whole 134-nt RNA, ends assumed
# Together with: 150 mM KCl
# Reference: input library
# Direction: higher = stronger binding
Strand,log2 enrichment
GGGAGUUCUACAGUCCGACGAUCUCAAGUCCUGUGCUACACAUCGUAUGUACCGAAUCGGGGAAGGAAGGGGAAGGGGAAAGUAUUAUGUUACGCCGUUCGGAUCUGCACUUCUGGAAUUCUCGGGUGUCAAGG,0.659
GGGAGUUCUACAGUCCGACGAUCUAACUUUAGAGGAGGAUCUGUUGGAUAUGGCAGUGGACGUGGAUUUGGGGAUGGCUAUAAUGGGUAUGGAGGAGGACCUGGAGGUGGCAAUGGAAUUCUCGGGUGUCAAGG,-0.505
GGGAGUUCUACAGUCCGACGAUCUCCUGUGCUACACAUCGUAUGUACCGAAUCGGGGAAAAAAAGGGGAAAGGGGUUUGGGGAAAGUAUUAUGUUACGCCGUUCGGAUCUGCAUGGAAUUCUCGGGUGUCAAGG,2.54
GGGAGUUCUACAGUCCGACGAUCUCAAGUCCUGUGCUACACAUCGUAUGUACCGAAUCGGGGCCGGGGCCGGGCCGGGAAAGUAUUAUGUUACGCCGUUCGGAUCUGCACUUCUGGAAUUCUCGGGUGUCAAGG,-0.815
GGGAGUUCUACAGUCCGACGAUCUCCUGUGCUACACAUCGUAUGUACCGAAUCGGGAAAAAGGGUUUUUUUGGGAAAAAGGGAAAGUAUUAUGUUACGCCGUUCGGAUCUGCAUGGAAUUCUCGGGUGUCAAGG,-0.912
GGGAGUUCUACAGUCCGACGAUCCUGUGCUACACAUCGUAUGUACCGAAUCGGGGUUUUUUUGGGGUUUGGGGAAAAAAAGGGGAAAGUAUUAUGUUACGCCGUUCGGAUCUGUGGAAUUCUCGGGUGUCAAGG,-0.339
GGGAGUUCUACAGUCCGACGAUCUCAAGUCCUGUGCUACACAUCGUAUGUACCGAAUCGGGGUUGGGUUGGGUUGGGAAAGUAUUAUGUUACGCCGUUCGGAUCUGCACUUCCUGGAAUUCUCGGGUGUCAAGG,1.91
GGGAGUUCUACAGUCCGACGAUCAGUCCUGUGCUACACAUCGUAUGUACCGAAUCGGAAAAAGGGAAAAAGGAAAAAGGGAAAGUAUUAUGUUACGCCGUUCGGAUCUGCACUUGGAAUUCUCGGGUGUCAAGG,-1.91
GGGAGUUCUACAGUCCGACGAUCAGUCCUGUGCUACACAUCGUAUGUACCGAAUCGGGUUUUUGGGAGGGUUUUUUUGGGAAAGUAUUAUGUUACGCCGUUCGGAUCUGCACUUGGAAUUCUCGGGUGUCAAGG,0.564
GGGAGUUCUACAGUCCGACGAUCUGAGAAACUUGCUCAAAUAUUGGCAGCUAGACAGUUAGAAAUUAAACAGAUUCCAUCUGAUGGCCACUGUAUGUAUAAAGCCAUUGAAGAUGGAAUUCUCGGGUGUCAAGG,-1.63
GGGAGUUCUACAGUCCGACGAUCCUGUGCUACACAUCGUAUGUACCGAAUCGGGGAAAAAGGGGAAAAAAAGGGGUUUUUGGGGAAAGUAUUAUGUUACGCCGUUCGGAUCUGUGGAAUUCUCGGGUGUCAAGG,0.742
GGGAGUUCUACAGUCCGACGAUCUCCUGUGCUACACAUCGUAUGUACCGAAUCGGGGAAAAAAAGGGGAGGGGUUUUUGGGGAAAGUAUUAUGUUACGCCGUUCGGAUCUGCAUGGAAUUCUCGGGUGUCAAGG,1.78
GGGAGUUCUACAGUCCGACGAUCUCAAGUCCUGUGCUACACAUCGUAUGUACCGAAUCGGCCCGGCCCGGGGCCCGGAAAGUAUUAUGUUACGCCGUUCGGAUCUGCACUUCCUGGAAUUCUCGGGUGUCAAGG,-1.4
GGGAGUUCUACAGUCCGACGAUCUCCUGUGCUACACAUCGUAUGUACCGAAUCAAAUUUUUAAACCCCCAAAUUUUUUUAAAAAAGUAUUAUGUUACGCCGUUCGGAUCUGCAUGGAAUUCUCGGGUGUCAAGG,-0.171

# Block 2
# Target: Prothrombin, mature alpha-thrombin (F2, Homo sapiens, UniProt P00734)
# Technique: aptamer microarray, sandwich
# Molecule type: DNA with 2'F-ANA
# Matrix: in vitro
# Tested at: 200 nM
# Notes: whole 15-mer aptamer, many near background
# Together with: Cy3 exosite-II aptamer, 400 nM
# Direction: higher = stronger binding
# Strand: GGTTGGTGTGGTTGG
Modification,mean fluorescence intensity [a.u.]
2'F-ANA at 1 5 9 10 13 14,57.9
2'F-ANA at 1 4 10 13 14,44.9
2'F-ANA at 2 4 6 8 9 15,298
2'F-ANA at 1 2 4 8 9 11 12 13 14 15,58.8
2'F-ANA at 1 6 7 8 9 10 11 14,54.1
2'F-ANA at 1 2 4 5 6 7 9 10 11 13 14,50.6
2'F-ANA at 2 7 8 9 11 12 13 14,151
2'F-ANA at 1 2 3 5 6 8 9 10 13 15,49.1
2'F-ANA at 1 2 4 5 6 8 13 15,53.3
2'F-ANA at 5 6 11,64
2'F-ANA at 1 2 4 10 13 14 15,52.2
2'F-ANA at 1 3 4 5 8 9 10 13 14,48.2
2'F-ANA at 1 2 4 5 7 8 9 10 11,47
2'F-ANA at 2 4 8 9 10 12 14,74.8
2'F-ANA at 1 2 4 5 6 8 9 11 13,186
2'F-ANA at 3 4 5 6 7 8 9 11 12 13 14 15,57.5
2'F-ANA at 4 5 7 9 10 14,47.6

# Block 3
# Target: ABI1, truncated, D143A, DHFR fusion (Arabidopsis thaliana)
# Technique: DHFR PCA, deep sequencing
# Matrix: yeast
# Notes: methotrexate growth selection, single substitutions
# Together with: (+)-ABA 4.8 µM
# Reference: wild-type fitted maximum
# Direction: higher = stronger binding
# Parent: PYL1, truncated, DHFR fusion (Arabidopsis thaliana); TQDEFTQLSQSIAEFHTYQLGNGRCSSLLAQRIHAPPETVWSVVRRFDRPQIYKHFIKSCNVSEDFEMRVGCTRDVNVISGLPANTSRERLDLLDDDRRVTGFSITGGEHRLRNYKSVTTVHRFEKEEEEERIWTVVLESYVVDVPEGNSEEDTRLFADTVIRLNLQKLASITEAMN; partner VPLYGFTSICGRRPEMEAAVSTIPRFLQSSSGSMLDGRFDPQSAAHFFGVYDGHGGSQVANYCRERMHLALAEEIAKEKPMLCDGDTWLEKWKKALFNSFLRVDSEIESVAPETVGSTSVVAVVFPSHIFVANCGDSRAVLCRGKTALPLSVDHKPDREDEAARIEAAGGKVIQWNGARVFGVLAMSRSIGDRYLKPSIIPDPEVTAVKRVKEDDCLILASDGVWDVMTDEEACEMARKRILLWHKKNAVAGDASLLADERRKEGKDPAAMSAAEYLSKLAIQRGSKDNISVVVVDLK
Variant,relative binding score [%]
G71F,4
T39P,3.27
F56I,-10.4
V76S,2.84
F47L,-7.95
T173D,1.92
C60E,8.28
M68A,36.8
H110P,35
R163I,5.81
R24H,45.7
D96M,-14
R123E,89.5
N149D,10.8
A170M,31.4
S171V,70.9
E128F,62.1

# Block 4
# Target: Histone acetyltransferase KAT6A, winged helix 1, GST fusion (KAT6A, Homo sapiens, UniProt Q92794, residues 1-85)
# Technique: protein binding microarray
# Molecule type: double-stranded DNA, one strand shown
# Matrix: in vitro
# Tested at: not given
# Notes: 8-mer, flanks averaged, mean of 2 arrays, mostly near background
# Reference: not given
# Direction: higher = stronger binding
# Construct (chain): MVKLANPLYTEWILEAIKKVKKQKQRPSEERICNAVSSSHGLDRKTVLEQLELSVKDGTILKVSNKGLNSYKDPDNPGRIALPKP
Strand,E-score
ACCGCAAT,0.159
ATAGATCA,-0.243
ACGCAGAG,-0.115
GCGGAGTA,0.18
GAGGATCC,0.0113
GCGGGACC,0.355
ACTTTCCC,-0.115
ATCATCGA,-0.149
ATGACTGG,-0.171
CCCGTAGC,0.353
AAGTTAAG,-0.18
CTTCGGGA,-0.0508
ACTCCCCT,-0.00813
GCGGGCGA,0.378
GGACGAAC,0.0887
GCTCACAA,-0.0664
CCCGAAGG,0.0259
GTTCGTTA,-0.00524
AGCACAGC,-0.0719
GGCGAGGA,0.103

# Block 5
# Target: BATF3, bZIP domain (human)
# Technique: DHFR protein complementation
# Matrix: yeast
# Notes: single substitutions, most at no-binding floor
# Reference: wild-type JUN-FOS pair
# Direction: higher = stronger binding
# Parent: JUN, bZIP domain (human); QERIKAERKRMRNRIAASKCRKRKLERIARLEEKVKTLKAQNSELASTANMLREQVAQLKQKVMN; partner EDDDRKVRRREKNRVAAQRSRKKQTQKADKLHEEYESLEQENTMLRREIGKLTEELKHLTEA
Variant,binding fitness
M51R,0.224 natural log
A40M,0.117 natural log
R53Q,0.073 natural log
M51S,0.254 natural log
L45S,-0.453 natural log
R30T,0.349 natural log
K34S,0.27 natural log
S47L,0.212 natural log
T48H,0.192 natural log
A57M,0.157 natural log
E44G,0.184 natural log
K39V,0.144 natural log
V56N,-0.21 natural log
K36W,0.146 natural log
K34N,0.214 natural log
A29W,0.0798 natural log
L45Q,-0.25 natural log
R53N,-0.047 natural log
A57Q,0.172 natural log
M51W,0.165 natural log
E54D,0.133 natural log
E32S,0.18 natural log
T37S,0.124 natural log
K39M,0.0363 natural log
K36N,0.163 natural log

# Block 6
# Target: CCND1, cyclin fold, Cln2 fusion (human)
# Technique: yeast growth competition, sequencing
# Matrix: yeast
# Notes: weak parent motif
# Reference: not given
# Direction: higher = stronger binding
# Parent: DNAH7 docking peptide (human); HELFQRLDFDNDG
Variant,normalised enrichment score
D10A,0.287
D12A,0.479
N11A,0.394
L7A,0.0567
D8A,0.302
H1A,0.381
G13A,0.246

# Single results of other studies
Substance,target,test,system,setting,scale,quantity,value
"PhoQ, residues 284 288 289 292 302 303 SMMNNA","PhoP, residues 12 14 15 18 19 LQHIR (Escherichia coli, UniProt P23836)","Sort-seq, refers to: YFP reporter",E. coli,"PhoQ-PhoP variant library, together with: 10 µM Mg2+","reference: high Mg2+ state, higher = stronger signaling",fold induction,18

# For quick reference, copied from above (block 5):
Variant,binding fitness
E54D,0.133 natural log
E44G,0.184 natural log
A29W,0.0798 natural log
K39M,0.0363 natural log
A57M,0.157 natural log
